Measurements from different studies.
Compare with care: the assays were run in different laboratories. Converted amounts (≈) assume the structure as drawn.

`O=[N+]([O-])c1cc2cc3ccc4oc([N+](=O)[O-])cc4c3cc2o1` gave an MIC90 of 0.125 µg/mL (≈ 0.419 µM) (Mycobacterium avium subsp. hominissuis; REMA; ATCC 25291).
`CN[C@H](CC(C)C)C(=O)N[C@H]1C(=O)N[C@@H](CC(N)=O)C(=O)N[C@H]2C(=O)N[C@H]3C(=O)N[C@H](C(=O)N[C@H](C(=O)O)c4cc(O)cc(O)c4-c4cc3ccc4O)[C@H](O)c3ccc(c(Cl)c3)Oc3cc2cc(c3O[C@@H]2O[C@H](CO)[C@@H](O)[C@H](O)[C@H]2O[C@H]2C[C@](C)(N)[C@H](O)[C@H](C)O2)Oc2ccc(cc2Cl)[C@H]1O` gave an MIC90 of 32 µg/mL (≈ 22.1 µM) (Enterococcus faecalis and Enterococcus faecium).
`CCCCCCCCCCCCCCCC(=O)CP(=O)(O)O` gave an MIC90 of 0.05 µg/mL (≈ 0.15 µM) (Bacillus cereus; 1056).
`Cn1c(=O)ccc2ccc(F)c(CCNC[C@H]3CN(c4cnc5c(n4)NC(=O)CO5)C(=O)O3)c21` gave an MIC90 of < 0.015 µg/mL (Moraxella catarrhalis).
With `CCCCCCCCCCCCCCCC(=O)NS(=O)(=O)Oc1ccc(OC)cc1` the MIC90 was 3.13 µg/mL (≈ 7.09 µM) (Bacillus cereus; 1056).
The MIC90 of `COc1c([N+](=O)[O-])oc2ccc3ccccc3c12` is reported as > 32 µg/mL (Mycobacterium avium subsp. hominissuis; REMA; ATCC 25291).
The MIC90 of `CC(=O)N[C@H]1[C@@H](O[C@@H]2O[C@H](C[C@@H](O)[C@H]3O[C@@H](n4ccc(=O)[nH]c4=O)[C@H](O)[C@@H]3O)[C@H](O)[C@H](O)[C@H]2NC(=O)/C=C/CCCCCCCCCC(C)C)O[C@H](CO)[C@@H](O)[C@@H]1O` is reported as 0.2 µg/mL (≈ 0.241 µM) (Bacillus cereus; microplate alamar blue; NRRL B-568).
With `COc1ccc2ccc3oc([N+](=O)[O-])cc3c2c1Br` the MIC90 was 1 µg/mL (≈ 3.1 µM) (Mycobacterium avium subsp. hominissuis; REMA; ATCC 25291).
For `CCC[C@@H]1C[C@@H](C(=O)N[C@@H]([C@H]2O[C@H](SC)[C@H](O)[C@@H](O)[C@H]2O)[C@H](C)Cl)N(C)C1`, the MIC90 was > 32 µg/mL (Enterococcus faecalis and Enterococcus faecium).
`CCCCCCCCCCCc1c([N+](=O)[O-])oc2ccc3ccccc3c12` gave an MIC90 of > 32 µg/mL (Mycobacterium avium subsp. hominissuis; REMA; ATCC 25291).
The MIC90 of `CCCCCC/C=C\CCCCCCCCCC(=O)CP(=O)(O)O` is reported as 0.2 µg/mL (≈ 0.555 µM) (Bacillus cereus; 1056).
The MIC90 of `CC(=O)NC[C@H]1CN(c2ccc(N3CCOCC3)c(F)c2)C(=O)O1` is reported as 2 µg/mL (≈ 5.93 µM) (Enterococcus faecalis and Enterococcus faecium).
